Assay results from different studies.
Parts stem from different laboratories: compare values within a part only.

Sample 1
Target: Replicase polyprotein 1ab, nsp13 helicase (rep, Severe acute respiratory syndrome coronavirus 2, UniProt P0DTD1)
Action: inhibitor
Concentration: 20 µM
The inhibition of `CCCc1c2oc(C(=O)O)cc(=O)c2cc2c(=O)cc(C(=O)O)n(CC)c12` is reported as 4.09%.
`CCn1c(N)c(C(=O)NC)c(=O)c2ccc(C#C[C@@](C)(O)COC)nc21` has an inhibition of 99.9%.
With `O=C(O)C1=CCNCC1` the inhibition was 2.23%.
For `C=C[C@@]1(C)CC(=O)[C@]2(O)[C@@]3(C)[C@@H](O)CCC(C)(C)[C@@H]3[C@H](OC(=O)CCN(C)C)[C@H](OC(C)=O)[C@@]2(C)O1`, the inhibition was 3.34%.
The inhibition of `CO[C@H]1C[C@@H]2CC[C@@H](C)[C@@](O)(O2)C(=O)C(=O)N2CCCC[C@H]2C(=O)O[C@H]([C@H](C)C[C@@H]2CC[C@H](n3cnnn3)[C@H](OC)C2)CC(=O)[C@H](C)/C=C(\C)[C@@H](O)[C@@H](OC)C(=O)[C@H](C)C[C@H](C)/C=C/C=C/C=C/1C` is reported as 5.28%.
`S=C(NCc1ccc2c(c1)OCO2)N1CCN(c2ncnc3c2oc2ccccc23)CC1` gave an inhibition of -0.5%.
The inhibition of `C[n+]1ccccc1/C=N/O` is reported as 0.32%.

Sample 2
Target: Replicase polyprotein 1ab, main protease (rep, Severe acute respiratory syndrome coronavirus 2, UniProt P0DTD1)
Effect on: enzyme activity
Action: inhibitor
Concentration: 20 µM
Setting: hit confirmation, no DTT
For `O=C1NC(=O)C(c2ccccc2)N1` (centres unmarked), the inhibition was 69.8%.
The inhibition of `CCOC(=O)Cc1ccc(-c2ccccc2)cc1` is reported as 99.8%.
For `[NH-]c1c[n+](N2CCOCC2)no1`, the inhibition was 60.4%.
`COc1cc(N(C)C)cc(CN(C)CCc2ccc([N+](=O)[O-])cc2)c1O` gave an inhibition of 104%.

Single results of other studies
`COC(=O)N[C@H](C(=O)N[C@@H](Cc1ccccc1)[C@@H](O)CN(Cc1ccc(-c2ccccn2)cc1)NC(=O)[C@@H](NC(=O)OC)C(C)(C)C)C(C)(C)C` gave an inhibition of 3.56% (Replicase polyprotein 1ab, main protease (rep, Severe acute respiratory syndrome coronavirus 2, UniProt P0DTD1); reporter gene (Gaussia luciferase), inhibitor; 20 µM).
`CC[C@H](C)[C@H](NC(=O)[C@H](CC(C)C)NC(=O)[C@H](Cc1c[nH]c2ccccc12)NC(=O)[C@H](CCC(N)=O)NC(=O)[C@@H](NC(=O)[C@H](Cc1ccccc1)NC(=O)[C@H](C)NC(=O)[C@H](CCCCNC(=O)COCCOCCNC(=O)COCCOCCNC(=O)CC[C@H](NC(=O)CCCCCCCCCCCCCCCCCCC(=O)O)C(=O)O)NC(=O)[C@H](CCC(N)=O)NC(=O)[C@H](C)NC(=O)[C@@H](NC(=O)[C@H](CCCCN)NC(=O)[C@H](CC(=O)O)NC(=O)[C@H](CC(C)C)NC(=O)C(C)(C)NC(=O)[C@@H](NC(=O)[C@H](CO)NC(=O)[C@H](Cc1ccc(O)cc1)NC(=O)[C@H](CC(=O)O)NC(=O)[C@H](CO)NC(=O)[C@@H](NC(=O)[C@H](Cc1ccccc1)NC(=O)[C@@H](NC(=O)CNC(=O)[C@H](CCC(=O)O)NC(=O)C(C)(C)NC(=O)[C@@H](N)Cc1ccc(O)cc1)[C@@H](C)O)[C@@H](C)O)[C@@H](C)CC)[C@@H](C)CC)C(C)C)C(=O)N[C@@H](C)C(=O)NCC(=O)NCC(=O)N1CCC[C@H]1C(=O)N[C@@H](CO)C(=O)N[C@@H](CO)C(=O)NCC(=O)N[C@@H](C)C(=O)N1CCC[C@H]1C(=O)N1CCC[C@H]1C(=O)N1CCC[C@H]1C(=O)N[C@@H](CO)C(N)=O` gave an acute pancreatitis of 0% (healthy human; 5.0 mg, single ascending dose).
`Cl.N=C(N)NN` has a GFP-positive cells of 89.1% (Vesicular stomatitis virus; pseudovirus infection, FDA-approved drug library screen; concentration not given, SARS-CoV-2 spike pseudotype; reference: vehicle).
